Experimental data collected from several papers.
A part holds a random share of what one study measured.

Sample 1
Target: Interferon regulatory factor 5, full length, phosphomimetic (IRF5, Homo sapiens, UniProt Q13568-2, residues 1-514, S451D/S453D/S456D/S462D)
Method: protein-binding microarray
Form: double-stranded DNA, one strand shown
Matrix: in vitro
Concentration: 940 nM top
Setting: 60-bp whole probe
With: salmon DNA 0.4 mg/ml
Relative to: random background probes
Reading: higher = stronger binding
Constant ends, left off below: GCCTAGCAC … GTCTTGATTCGCTTGACGCTGCTG
Strand | fitted relative affinity [z-score]
TCAATTTTCTGAATGCCACTGTGCTAG | 0.136
TCATGACACCGATTTCATACTGTGCTA | -0.0697
TCAGGTTTCCAAATTGTACTGTGCTAG | 0.0261
CACTCTGTCCCTCTGTGACAGTGCTAG | 0.0996
TTAGGCCTGCTACTGCTTTAGTGCTAG | -0.491
ATGAAAATCTCAATGGGTTAGTGCTAG | -0.0564
CTGTGGGAGGCCCGCGGGAGGTGCTAG | -1.25
TTAGAAATCAGACTGGATTAGTGCTAG | -0.478
GGTCCTCTAGGAATGTAACTGTGCTAG | -0.231
TTACATTTTAATTTTATTTGGTGCTAG | 0.692
GACGGTCTCGGTTTGGGGACGTGCTAG | 4.62
GTCACATTGTGCAATCTTAATGTGCTA | 0.0075
TCACCTTGATGTCTGGGACTGTGCTAG | -0.272
TTAGCACTGGGGTATCGATTAGTGCTA | 2.87
TTAGGACTACTTATCCTTTAGTGCTAG | -0.357
TCTTTTTGCTTTCTTTTATGGTGCTAG | 2.64
TGACCTGCTCCAAACACCTCGTGCTAG | 0.279
GACGGTTTCCTTCTCTTGACGTGCTAG | 1.85
GAAGATCTCAGACTGGAGACGTGCTAG | -0.614
CTAGGTTTCGACTATCGGTTAGTGCTA | 8.52
GACTAACTGAGACTGGAGACGTGCTAG | 0.0272
TCACGGATGATCTCTCTGACTGTGCTA | 0.0171
TTAGGACTGGACTTTAGGTTAGTGCTA | -0.401
TTAGAACTGGGGACTGTATTAGTGCTA | 0.0465
TTATCAATCATTTTCGTTTTGTGCTAG | 1.56

Sample 2
Target: RNA binding protein fox-1 homolog 2, RRM domain, GST-SBP tag (RBFOX2, Homo sapiens, UniProt O43251-10, residues 100-194)
Method: RNA Bind-n-Seq
Form: RNA
Matrix: in vitro
Concentration: 365 nM
Setting: natural RNA segment, single round, ends assumed
Relative to: no-protein control
Reading: higher = stronger binding
Constant ends, left off below: GGGAGUUCUACAGUCCGACGAUC … UGGAAUUCUCGGGUGCCAA
Residues (chain): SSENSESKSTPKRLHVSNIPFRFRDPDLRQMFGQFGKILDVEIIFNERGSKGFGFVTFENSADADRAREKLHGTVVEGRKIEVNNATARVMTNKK
Strand | RBNS enrichment (R)
UCAUGGAAAAUUAACCAGAAAGUAUCAGUUCUUAAAAGUUAUGCCUAGAAAUUAUGUAAAGCUAAACUACUGGUUAGAAAGUAUUCAGUGUAAUAUUGUAUUAAUUUGUU | 1.06
CUCCAUUUGCAGCAUGGUUCCCAUGCCAUUGGCGCACCAGACAGAAAAGGGAGAGAGAAAAGACAGGAACUGAUGAGAUAGUUUGAAAGCUGAAGGAGUUCUGAGUUUGU | 0.661
GUUACUUAUUACCCUCUUUCUCUCAAGUGCUUUAAAGAAGAAACCUCCCUGGUGUUUCUUUUCUUUUUUUUUUUGAGACGGAGUCUUGCUUUGUUGCCCAGGCUGAAGUG | 0.592
CUCAGCCAGCCCUCAGAGUGUCCGCUGUGCGCACGGGGGCGGGGCGGGGCGGGCAGCUCCUUGUCUCUCAGCUUUGACUGACUUGUCCGCAUUGGGGAUUUUUGUUCUCA | 0.314
GAGGCAGGUGGCAAUCUCCUCGCCAGCAUUCCAGGCCCUCAGUUCAAUGACAUCUCUCAGAGCAUUUUUGUUUUCUCCUCUGAAGGUCCAUCCAGUUGCAUUGGGAAGGG | 6.21
AGAGCUGCAGUUAGACGGGGUUACGGGGGCUAAAAGCAGAAAAAAAAUUCCAUUUCAUCGGGAUGGAACUGAAGGAUUUUAUUCUAUAAAGCGGCCCUGGUUGAAUCUGG | 0.719
AAGACUGAUUGCACCUGGGACCCAGGCCCUUUCUUUGGGAUCCAGUCCCAGCCUUCAUCCAUGUGAUUAAGAUCCAGGCCGCUGAAGUUCCCCAGGAAAUGAUCUUCCAC | 0.34
CCCUGGCCUCUCUUGUCUGCACGCCUCAUGUGGCCACUGGGAUUUGAGGGUCCACAGUGAACCUUGAUCAAAUUGCACAGUGGGUUGUUCCUCCACACACCCUCCUUUUU | 3.36
UACUGAUAACCAUAUUCUGGCUUGUUCCCUUACCCCCUACUUCUAUCCAAUUUUCUCUGCUAGGGGUUAUCAUUAGCAAUUGACAUGCUAAAGGUUUUGGAGCCCACCUA | 0.716
GGUCCCUCCUGUCCCCCCUCUUCAUCCCUUGACAAAUGGGCACCAGGCUUCUGCUCUCCUCAAAGCCAUACCCCCGCCUUUGGGCGGGCAUAGAGGGGUAGUGGAUGCUA | 0.383
AUUGGUUUCAGAAAGAAUCUUAGCUACCUAGAAUUUACAGUCUCUGUUUCAUGGCAACACUGGAUAAUGGCUUUGUGAAAUUUAAAAAAUUUUUGUAGCGACUGUAAACA | 0.418
AAGCUAAGUCACCCUGGUGUCAUUCUGUCAUCUGUGCAACUAUUAUUUCCUUUGGGAGUUUCCUCUUCAUGCAUUUUGUUCCUAGGGAAUAAAAAUAGCUGUUAGACCUG | 0.393

Sample 3
Target: RING finger protein unkempt homolog, zinc fingers 1-6, GST-SBP tag (UNK, Homo sapiens, UniProt Q9C0B0, residues 30-357)
Chain of UniProt Q9C0B0 (30-357, looked up): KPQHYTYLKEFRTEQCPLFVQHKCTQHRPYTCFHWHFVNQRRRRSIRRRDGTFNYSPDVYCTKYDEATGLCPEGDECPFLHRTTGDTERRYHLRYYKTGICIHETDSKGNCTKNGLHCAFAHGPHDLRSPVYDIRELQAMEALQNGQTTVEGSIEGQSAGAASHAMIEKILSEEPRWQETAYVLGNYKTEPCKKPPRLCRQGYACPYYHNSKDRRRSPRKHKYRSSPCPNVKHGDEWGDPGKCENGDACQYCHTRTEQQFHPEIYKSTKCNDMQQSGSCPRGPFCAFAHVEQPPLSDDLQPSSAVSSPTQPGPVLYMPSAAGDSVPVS
Method: RNA Bind-n-Seq
Form: RNA
Matrix: in vitro
Concentration: not given
Setting: RNA with constant flanks, human and mouse sites, ends assumed
Relative to: input RNA pool
Reading: higher = stronger binding
Constant ends, left off below: GGGAGUUCUACAGUCCGACGAUC … CAACAGAGGAUUGAGCAUCA
Strand | bound/input enrichment
AAAAUUUUUGCCUUUGCCAACUCACUAGUGGAACUUCUGGCUGUGGGGUUAGAAACCUUUAAUAGAGCACGCUAUAGGCAGUUUGUGAAGCGAAUUGGUUAUAUGAUCAGGAUGACUCUU | 0.809 ratio
AACAAGUGGGUAAUUCCAGAAUUGAUUGGCCAUACCAUUGUCACUGUAUUACUGCUCAUGUCAUUGCACUGGUUCAUCUUCCUUCUCAACUUACCUGUUGCCACUUGGAAUAUAUAUCGA | 0.276 ratio
CCUGUUCUCAUUUCAGCUAUGAAGAUUUUUGUUACAACCAAAAACUCAAAAAACCAAGGAAUAGAAGAAGCUUUGAAAAAUCGAAAUUUUACUGUAGAAAAGAUGAGUGCUGAAAUUAAC | 0.312 ratio
CGGAAUUGGGAUGACAUGAAGCACCUGUGGGACUACACAUUUGGACCAGAGAAACUCAAUAUAGACACCAGAAACUGCAAGAUUUUACUUACAGAACCUCCCAUGAAUCCAACCAAAAAC | 0.61 ratio
GUGCUCCAGGUGGACUCUGGUGCCAACGCCACGGCCACGGCUCGCUGGCCUGGGGGCAGUGUCAGCGCCCGCUUUGAGAAUGUCUGCCCUGCCCUGGUGGCCACCUUCGUGCCCGGCUGC | 0.104 ratio
GAAGGGCUAUCUUUCUAUUCACAUCAAACCUUUUGUUGCGUGUUUCUGUUUUUUAAUACUUUAGGGUUCUGAUUUGUGGGAACAGACCUUGUAAAUAACCACUGUUCACAUGUGUGGCAG | 0.479 ratio
ACAUGGGUUCAAUUGGACAAUUAUUUUUGCUCUGCUCUGUUUUGCAUGGAGUAUUAUUAUUUUAAAAAUUGCAUUUUUACCUUUCAUGUGCCUGAAGGCUAUCCACUACAUUCUGAAGGC | 0.79 ratio
ACUCUCUUCCCCCCUUUUUGAGUUGUUGGGCAGUUCUUAUUUCUUGCUUGCUUUUCGGUUUCUUGCUGUUGUUGGGUGUUUUUUUUGUUUGUUUGUUUGUUUGUUUGUUCUCGCUUUUUU | 1.96 ratio
UUUAAUCUUAAACUCAAUGAGUAUAUGUUGAGUAACCUUUAAAAAUGAAAGAUUUAAAAAGAUUUAUAUCCACUGAGAAUACAGGCCUUAUAUUAAGGAUGAUAUUAAAAUUAUAGGUUU | 5.61 ratio
UCCUCUUGCCUUUUCUUGCCUCGGUUGAAUACUUAACUAAGCUGUGUGCUUGUUGAUCUAUGUAUUCUGACUUCACUUGAGUACCACCCACCUUUUCUUUUAAAGUAAUUCAGUAAGUAA | 0.481 ratio
UUGAGCCACAAGAAGUGGAGGGGAGACCAUGCCUGGGAACAGACCCCCUUUUCACAGCAGUAAGUUUGUUUUGAGGCUUUCUCAGCUACUUGGCUCCCACAGAACCCAAGGCAGGUACAC | 0.154 ratio

Sample 4
Target: Fragile X messenger ribonucleoprotein 1, C-terminal low-complexity region (Fmr1, Mus musculus, UniProt P35922)
Method: RNA Bind-n-Seq
Form: RNA
Matrix: in vitro
Concentration: 200 nM
Setting: whole 134-nt RNA, ends assumed
With: 150 mM LiCl
Relative to: input library
Reading: higher = stronger binding
Library: 7-deaza-guanosine replaces G
Constant ends, left off below: GGGAGUUCUACAGUCCGACGAUC … UGGAAUUCUCGGGUGUCAAGG
Strand | log2 enrichment
GUCCUGUGCUACACAUCGUAUGUACCGAAUCGGGUUUUUUUGGGUUUGGGAAAAAGGGAAAGUAUUAUGUUACGCCGUUCGGAUCUGCAC | -1.74
UCCUGUGCUACACAUCGUAUGUACCGAAUCAAACCCAAACCCCCCCAAAUUUUUUUAAAAAAGUAUUAUGUUACGCCGUUCGGAUCUGCA | 1.46
AUUAAUUUGUACACAGACAGGGAAACUGGCAAGCUGAAGGGAGAGGCAACGGUCUCUUUUGAUGACCCACCUUCAGCUAAAGCAGCUAUU | -2.27
UGGCCCUGGUGGCAUGCGGGGAGGAAGAGGUGGCCUCAUGGAUCGUGGUGGGCCCGGUGGAAUGUUCAGAGGUGGCCGUGGUGGAGACAG | 0.475
GUCCUGUGCUACACAUCGUAUGUACCGAAUCGGGGUUUUUGGGUUUUUGGGGUUUUUGGAAAGUAUUAUGUUACGCCGUUCGGAUCUGCA | -0.617
UGGCCCUGGUGGCAUGCGGGGAGGAAGAGGUGGCCUCAUGGAUCGUGGUGGUCCCGGUGGAAUGUUCAGAGGUGGCCGGGGUGGAGACAG | -0.886
CAAGUCCUGUGCUACACAUCGUAUGUACCGAAUCGGAAAAAGGAGGAAAAAAAGGAAAGUAUUAUGUUACGCCGUUCGGAUCUGCACUUC | -0.392
CAAGUCCUGUGCUACACAUCGUAUGUACCGAAUCGGGGAAAGGAAAGGGAAAGGGGAAAGUAUUAUGUUACGCCGUUCGGAUCUGCACUU | -0.882
CCUCAAGUCCUGUGCUACACAUCGUAUGUACCGAAUCGGUGGGUGGGGUGGGGAAAGUAUUAUGUUACGCCGUUCGGAUCUGCACUUCCA | -0.564
UCGCCCUGGUGGCAUGCGGGGAGGAAGAGGUGGCCUCAUGGAUCGUGGUGGUCCCGGUGGAAUGUUCAGAGGUGGCCGUGGUGGAGACAG | 0.257
CUCAAGUCCUGUGCUACACAUCGUAUGUACCGAAUCGGGUGGGUGGGUUUGGGAAAGUAUUAUGUUACGCCGUUCGGAUCUGCACUUCCA | -0.758

A few entries again (sample 4):
Strand | log2 enrichment
UGGCCCUGGUGGCAUGCGGGGAGGAAGAGGUGGCCUCAUGGAUCGUGGUGGGCCCGGUGGAAUGUUCAGAGGUGGCCGUGGUGGAGACAG | 0.475
GUCCUGUGCUACACAUCGUAUGUACCGAAUCGGGGUUUUUGGGUUUUUGGGGUUUUUGGAAAGUAUUAUGUUACGCCGUUCGGAUCUGCA | -0.617
UGGCCCUGGUGGCAUGCGGGGAGGAAGAGGUGGCCUCAUGGAUCGUGGUGGUCCCGGUGGAAUGUUCAGAGGUGGCCGGGGUGGAGACAG | -0.886
CAAGUCCUGUGCUACACAUCGUAUGUACCGAAUCGGAAAAAGGAGGAAAAAAAGGAAAGUAUUAUGUUACGCCGUUCGGAUCUGCACUUC | -0.392
CAAGUCCUGUGCUACACAUCGUAUGUACCGAAUCGGGGAAAGGAAAGGGAAAGGGGAAAGUAUUAUGUUACGCCGUUCGGAUCUGCACUU | -0.882
CCUCAAGUCCUGUGCUACACAUCGUAUGUACCGAAUCGGUGGGUGGGGUGGGGAAAGUAUUAUGUUACGCCGUUCGGAUCUGCACUUCCA | -0.564
UCGCCCUGGUGGCAUGCGGGGAGGAAGAGGUGGCCUCAUGGAUCGUGGUGGUCCCGGUGGAAUGUUCAGAGGUGGCCGUGGUGGAGACAG | 0.257
CUCAAGUCCUGUGCUACACAUCGUAUGUACCGAAUCGGGUGGGUGGGUUUGGGAAAGUAUUAUGUUACGCCGUUCGGAUCUGCACUUCCA | -0.758
